Results collected from several papers.
Compare with care: the assays were run in different laboratories. ± marks the error that the study gave.

| Substance | target | test | test system | conditions | how to read | measurement | result |
| --- | --- | --- | --- | --- | --- | --- | --- |
| O=c1ccn([C@@H]2O[C@H](COP(=O)(O)OP(=O)(O)OP(=O)(O)O)[C@@H](O)[C@H]2O)c(=O)[nH]1 | P2Y2 receptor (human) RGE mutant | FAK phosphorylation, agonist | 1321N1 transfected | 5 min, 37 °C | reference: RGE mutant over wild type | potency shift | ~1000 fold |
| COc1cc(C=O)cc(OC)c1O | UGT (rat) | p-NP glucuronidation, inhibitor | rat kidney microsomes |  |  | lowest inhibitory concentration | ≥ 10 µM |
| CC1CCN(CCCN(C[C@H]2O[C@@H](n3cnc4c(N)ncnc43)[C@H](O)[C@@H]2O)C2CCN(Cc3nc4cc(NC(=O)C(C)(C)C)ccc4[nH]3)CC2)CC1 | human DOT1L R231Q | inhibitor, western blot, item: H3K79me2 over histone H3 | H460 DOT1L R231Q | concentration not given | reference: cpd over SGC0946 | H3K79me2 level ratio | 1.23 |
| O=c1ccc2ccccc2o1 | CYP2A6 human | 7-hydroxylation, substrate | human liver microsomes | CYP2A6 added 433 pmol/mg, ratio 1 |  | Vmax | 27.1 ± 12.4 min⁻¹ |
| CC(C)(C)c1cc(C(C)(C)C)c(NC(=O)c2c[nH]c3ccccc3c2=O)cc1O | CFTR S1251N human | short-circuit current, potentiator | CFBE | 14.44 µM, together with: forskolin 20 µM | reference: PKA-activated wild type | CFTR activity | 68.1 ± 2.1% |
| MSYLH-OH | cytochrome P450 Blt (Micromonospora sp. MW-13) | substrate, LC-MS | peptide | overnight, 30 °C, P450 0.5 µM, together with: NADH 2 mM |  | conversion to cyclic peptide | 15% |
| CCCCCCCCCCCCCCCC(=O)N[C@@H](CCCNC(=N)N)C(=O)N[C@@H](C)C(=O)N[C@@H](CC(C)C)C(=O)N[C@@H](CCC(N)=O)C(=O)N[C@@H](CCCCN)C(=O)N[C@@H](CCCNC(=N)N)C(=O)N[C@@H](CC(C)C)C(=O)N[C@@H](CCCNC(=N)N)C(=O)N[C@@H](CCC(=O)O)C(=O)N1CCC[C@H]1C(=O)N[C@@H](CCC(=O)O)C(=O)N[C@@H](CCCCN)C(=O)N[C@@H](CCC(N)=O)C(=O)N1CCC[C@H]1C(=O)N[C@@H](CCCCN)C(=O)N[C@@H](CC(C)C)C(=O)N[C@@H](CCC(N)=O)C(=O)N[C@@H](CCCNC(=N)N)C(=O)N[C@@H](C)C(=O)N[C@@H](CCC(N)=O)C(=O)N[C@@H](C)C(N)=O | PAR4 human | platelet aggregation | human platelets | 3 to 10 µM, 2 min preincubation, together with: AYPGKF 160 µM |  | inhibition | inhibited |
| CC(C)(C)C(=O)Nc1ccc2[nH]c(CN3CCC(N(CCCN4CCC(O)CC4)C[C@H]4O[C@@H](n5cnc6c(N)ncnc65)[C@H](O)[C@@H]4O)CC3)nc2c1 | human DOT1L R231Q | inhibitor, western blot, item: H3K79me2 over histone H3 | H460 DOT1L R231Q | concentration not given | reference: cpd over SGC0946 | H3K79me2 level ratio | 0.591 |
| COC(=O)CC(O)(CC(=O)OC)C(=O)O | NAD(P)H quinone oxidoreductase, mouse | enzyme induction, inducer | Hepa-1c1c7 | concentration doubling activity |  | CD value | > 20 µM |
| CC(C)N(CCC1CC2CN(C(=O)Nc3ccc(C(C)(C)C)cc3)CC2C1)C[C@H]1O[C@@H](n2cnc3c(N)ncnc32)[C@H](O)[C@@H]1O (stereo partly shown) | human DOT1L R231Q | inhibitor, western blot, item: H3K79me2 over histone H3 | H460 DOT1L R231Q | concentration not given | reference: cpd over SGC0946 | H3K79me2 level ratio | 3.12 |
| GKKVITAFCEGLK | 3.L2 T cell receptor | agonist | peptide, 3.L2.12 T cell hybridoma | concentration not given | reference: over Hb(64-76) peptide | relative concentration for IL-2 production | 10 to 100 fold |
| CC(=O)c1c(O)cc(O)cc1O[C@@H]1O[C@H](CO)[C@@H](O)[C@H](O)[C@H]1O | NAD(P)H quinone oxidoreductase, mouse | enzyme induction, inducer | Hepa-1c1c7 | concentration doubling activity |  | CD value | > 20 µM |
| CC(C)NC(=O)CCN(C[C@H]1O[C@@H](n2cnc3c(N)ncnc32)[C@H](O)[C@@H]1O)C1CCN(Cc2nc3cc(NC(=O)C(C)(C)C)ccc3[nH]2)CC1 | human DOT1L R231Q | inhibitor, western blot, item: H3K79me2 over histone H3 | H460 DOT1L R231Q | concentration not given | reference: cpd over SGC0946 | H3K79me2 level ratio | 1.29 |
| CC1=C\[C@@H](O)C[C@@H](O)Cc2nc(co2)C(=O)N[C@H](C)C(=O)O[C@H](C(C)C)[C@H](C)/C=C/C(=O)NC\C=C\1 | Escherichia coli 70S ribosome | fMet-Phe dipeptide formation |  | 5 µM, pH 7.5, 37 °C |  | fold reduction of dipeptide formation | ~5 fold |
| CCC(C)(O)C(O)C(=O)O (stereo not shown) | rhodopsin wild type-Rluc fusion | reporter gene | HEK293 | 24 h |  | EC50 | 590 nM |
| OC[C@H]1O[C@@H](Oc2cc3c(O)cc(O)cc3[o+]c2-c2ccc(O)c(O)c2)[C@H](O)[C@@H](O)[C@@H]1O | NAD(P)H quinone oxidoreductase, mouse | enzyme induction, inducer | Hepa-1c1c7 | concentration doubling activity |  | CD value | > 20 µM |
| CCCN(CCC)S(=O)(=O)c1ccc(C(=O)O)cc1 | rat renal Oats |  | rat, plasma | iv, 100 mg/kg, together with: 6-CF 1 mg/kg iv |  | 6-CF AUC(0-60 min) | 164 ± 10.4 µg·min/mL |
| NCCOB(c1ccccc1)c1ccccc1 | TRPV3 D641N (mouse) | agonist, Fluo-4 calcium | HEK293 transfected |  | reference: pH 7.4 over pH 5.6 | EC50 ratio | ~21 fold |
| CC(O)CN (stereo not shown) | rhodopsin wild type-Rluc fusion | reporter gene | HEK293 | 24 h |  | EC50 | 920 nM |

Some of these lines once more:
| Substance | target | test | test system | conditions | how to read | measurement | result |
| --- | --- | --- | --- | --- | --- | --- | --- |
| CC(C)N(CCC1CC2CN(C(=O)Nc3ccc(C(C)(C)C)cc3)CC2C1)C[C@H]1O[C@@H](n2cnc3c(N)ncnc32)[C@H](O)[C@@H]1O (stereo partly shown) | human DOT1L R231Q | inhibitor, western blot, item: H3K79me2 over histone H3 | H460 DOT1L R231Q | concentration not given | reference: cpd over SGC0946 | H3K79me2 level ratio | 3.12 |
| GKKVITAFCEGLK | 3.L2 T cell receptor | agonist | peptide, 3.L2.12 T cell hybridoma | concentration not given | reference: over Hb(64-76) peptide | relative concentration for IL-2 production | 10 to 100 fold |
